# Assay results of several laboratories.
# Every numbered part comes from another study and shows a few of its results, in no order. Positions count from the first letter of the parent shown.

# Study 1 — target: CCNF, cyclin fold, Cln2 fusion (human); technique: yeast growth competition, sequencing; sample: yeast; setting: strong parent motif; baseline: not given; direction: higher = stronger binding
# Starting sequence: CDKN1A docking peptide (human); SKACRRLFGPVDS; partner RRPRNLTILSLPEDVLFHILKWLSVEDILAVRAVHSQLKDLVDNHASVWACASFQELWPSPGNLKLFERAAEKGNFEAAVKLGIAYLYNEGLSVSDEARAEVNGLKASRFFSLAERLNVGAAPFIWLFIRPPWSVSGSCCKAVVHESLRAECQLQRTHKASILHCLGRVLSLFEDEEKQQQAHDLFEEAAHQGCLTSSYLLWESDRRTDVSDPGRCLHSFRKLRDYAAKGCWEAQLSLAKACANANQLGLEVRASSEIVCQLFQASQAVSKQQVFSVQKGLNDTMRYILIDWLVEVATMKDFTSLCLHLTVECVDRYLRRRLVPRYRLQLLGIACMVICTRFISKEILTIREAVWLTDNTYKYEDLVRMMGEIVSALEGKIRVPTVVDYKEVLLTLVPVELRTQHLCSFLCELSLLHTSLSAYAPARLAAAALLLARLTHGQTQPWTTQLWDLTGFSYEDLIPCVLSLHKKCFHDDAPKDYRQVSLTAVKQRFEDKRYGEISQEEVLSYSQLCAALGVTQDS
Substitution,normalised enrichment score
G9E,7.05
L7M,0.674
L7S,0.0729
K2W,7.05
V11R,7.17
K2D,6.81
C4M,4.49
R6W,1.53
L7K,0.75
P10C,6.53
D12P,7.96
R5L,0.464
L7E,-0.131
D12G,7.21
A3P,7.2
C4N,6.8
C4Y,3.04
V11K,7.25
K2P,7.19
D12T,7.34
F8L,0.517
P10Y,6.99
R5P,-0.164
K2Q,7.28
R5G,0.0348

# Study 2 — technique: DHFR PCA, deep sequencing; sample: yeast; together with: (+)-ABA 0.0091 µM; baseline: wild-type fitted maximum; direction: higher = stronger binding
# Target: ABI1, truncated, D143A, DHFR fusion (Arabidopsis thaliana)
# Setting: methotrexate growth selection, single substitutions
# Starting sequence: PYL1, truncated, DHFR fusion (Arabidopsis thaliana); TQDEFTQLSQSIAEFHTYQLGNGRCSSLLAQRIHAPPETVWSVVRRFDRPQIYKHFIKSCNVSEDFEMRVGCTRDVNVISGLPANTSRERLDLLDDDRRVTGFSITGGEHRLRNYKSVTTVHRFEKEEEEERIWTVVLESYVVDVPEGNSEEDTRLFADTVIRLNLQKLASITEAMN
Substitution,relative binding score
A30T,7.02%
F15K,-3.4%
L169E,-2.35%
D92N,14.3%
L166W,0.24%
E109V,-1.65%
E130A,30.7%
L29S,-0.934%
Q2P,71.1%
K168W,12.1%
F103H,-0.758%
Q7H,25.6%
G102E,-2.19%
Y18L,-0.103%
V43Q,-3.59%
E152R,1.69%
P83Q,18.3%
Y141E,2.25%

# Study 3 — technique: competition protein-binding microarray; molecule type: double-stranded DNA, one strand shown; sample: in vitro; tested at: 2 µM; together with: Pho4 competitor, 0.05 µM; direction: higher = stronger binding; shared flanks, not repeated: … GTCTTGATTCGCTTGACGCTGCTG
# Target: Centromere-binding protein 1, full length, His-tagged (CBF1, Saccharomyces cerevisiae, UniProt P17106, residues 1-351)
# Chain of UniProt P17106 (whole entry, looked up): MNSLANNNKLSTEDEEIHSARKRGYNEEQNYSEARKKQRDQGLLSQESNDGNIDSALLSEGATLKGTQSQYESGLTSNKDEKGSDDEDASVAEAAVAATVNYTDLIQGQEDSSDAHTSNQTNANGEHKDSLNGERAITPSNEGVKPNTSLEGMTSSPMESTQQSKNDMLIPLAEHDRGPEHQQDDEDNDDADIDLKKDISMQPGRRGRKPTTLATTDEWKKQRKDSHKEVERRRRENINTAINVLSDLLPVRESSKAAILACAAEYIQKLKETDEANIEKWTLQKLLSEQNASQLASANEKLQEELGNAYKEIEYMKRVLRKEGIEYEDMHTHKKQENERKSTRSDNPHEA
# Setting: whole 60-bp probe, lowest competitor level
Oligonucleotide,fluorescence intensity
CAGAGGAACGAGATAAACGTGCGATCCCTTCAATAA,73.9 a.u.
TTGACAATGTCGAGTCACGTGCAAAACAATTCAAGT,17500 a.u.
TGCGCAACAACTTGATCTGTGGGTGTATGTCTAGAA,72.3 a.u.
CGGTCATCGGGCGCGCTCGTGGACGATGACAAGCGC,62.2 a.u.
GTCTTGTCTCATTGTAGGGTGGGTGTCCCCACTTCA,57.4 a.u.
CGTCCTAGTGATTGTGGAGTGGGTGCCATGAGGAAG,90.3 a.u.
TTTCAAAAAAGGAACTTATCTCTGACAATTTTCGAC,66.2 a.u.
AGGGTTACACTCCATCACGTGGGACACCATAATTTA,1960 a.u.
TGTGGGTAATTAGATAATTGTTGGGATTCCATTGTT,72.2 a.u.
CGTCCTAGTGATTGTTCAGTGGGTGCCATGAGGAAG,86.7 a.u.
TAGTATCTTGCATTGCACGGGCTTTATATTGAGCAA,93.8 a.u.
GTTGAGCGAACGCGACTCGTGGGACGGCCACTTCGC,61.2 a.u.
GACACGACTGACAAACAAAAGTTAATATATATTACA,111 a.u.
GAATCCTATGCTTCACACATGAGGACAGGTTACGAA,68.7 a.u.
CTAACGAAGGTTTTTCACGTGATGTACAAGCCAAGT,3900 a.u.
CATACCCAACCTTGGCATGTGGGTGAAGATATTTGT,95.8 a.u.
GTTGGGCCACCGGGACCCATGTCTGCGTCCGCGATA,44.2 a.u.
GCAGTGCCATCCCGTCACATGACAACACCACTTTAA,1380 a.u.
CGTCCTAGTGATTGGGGGGTGGGTGCCATGAGGAAG,126 a.u.
GGTCTCCTCGGTGAAAGCGTGATGGGATAGCCGTTA,121 a.u.
CTAACGAAGGTTTGATTGGTGGGTGACAAGCCAAGT,94.1 a.u.
GTCTTGTCTCATTGTTTAGTGGGTGTCCCCACTTCA,80.1 a.u.
GTACTTGATTTAACCTGCGTGCTTTAAGTCGGTAAA,101 a.u.
CTTTCCCGATCTTGAGCGGTGGGTGTAGCACATTTG,67.2 a.u.
TCTGATGTGTAAACTCATGTGGTGCACTGGTGTTGT,79.2 a.u.

# Study 4 — technique: RNA Bind-n-Seq; molecule type: RNA; sample: in vitro; tested at: 365 nM; baseline: no-protein control; direction: higher = stronger binding
# Target: RNA binding protein fox-1 homolog 2, RRM domain, GST-SBP tag (RBFOX2, Homo sapiens, UniProt O43251-10, residues 100-194)
# Setting: natural RNA segment, single round, ends assumed
# Shared flanks, not repeated: GGGAGUUCUACAGUCCGACGAUC … UGGAAUUCUCGGGUGCCAA
# Target sequence (chain): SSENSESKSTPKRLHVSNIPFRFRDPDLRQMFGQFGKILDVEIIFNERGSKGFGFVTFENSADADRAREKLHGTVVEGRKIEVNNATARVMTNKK
Oligonucleotide,RBNS enrichment (R)
UUCUGGAAUGUUAGGAAGAGCAGCUGAGACUUCUAUCCUGAUAGAAUAAAACAACUGCCUGAUUCUAGGGUUUUCCAUUAAUAGACAGCCAUUGUUCUCUCUGGACCACA,1.68
UGUGGCUGACCUGGGCUGCUGGUUCCGUUGACUAGGGUCAUCUUGAUCUCUGCAGUUUGCUCCAGCUACCAGUUUCUUUAGGCAGCUCUUUGUCCUCCCUCUGCCCAGAU,0.372
GUUGAGCCAAAGCCCCCAGUGUUUGUAUUUUGAAGCCAAGCUUCACUUUAAAAGUGCCUACAGAGUUCUGUAAAUGAAAACACAGCUCUGCAUGAGUUCAAACCUGUCGU,0.997
UCUUCAUCCUGGGGGCUCUGUUACACUAAUUUGAAUAAACUCUCCCCUUUCUUUGCAACUUCCCAGCAACAAUAAUGAUUUUCUUGCCAGGCCGUCUCUUGCUCCCUAAU,1.02
GAGGAGCUCUGAGGGGCAGGGAGCCUGGCCAGGCCUGAGACACAGAGGCCCACUGCGAGGGGGACAGUGGCGGUGGGACUGACCUGCUGACAGUCACCCUCCCUCUGCUG,0.595
GAGUUCAGUUCAACAGAGCUGCAGCUUGGGAAGCCCUGUAAGCCCACAGCUUCCUCUCUUAUAUUAAUUGAUGGAAUUUUACUGUAUGUGCCUCUGUACAAGAUGUAGCU,0.328
ACUUUAAUAUAAAGUAGUCCUGUGAAUGCCACUGCCUUCGCUUCUUGCCUCUGUGCUGUGUGUGACGUGACCGGACUUUUCUGCAAACACCAACAUGUUGGGAAACUUGG,0.522
GGGCAGCCCAGCCUCUGUCCCUCUUUGCCUGUGUGAGCAUCUCUGUGUACCCACUCCUCACUGCCCCACCAGCCACCUCUUGGGCAUGCUCAGCCCUUCCUAGAAGAGUC,0.676
ACCUCAGUUGUCCUGCCCUGUGGAAUGGGCUCAAGGUUCCUGAGACACCCGAUUCCUGCCCAAACAGCUGUAUUUAUAUAAGUCUGUUAUUUAUUAUUAAUUUAUUGGGG,0.289
AAGAAGAGGAAGAGAAAAUGCCUGCUGUUGUAAAUGUCGGAGCCCCUCGUUCUCGGUCCUGCCUGGAACCUUUGUACGCUUUGCUCAAAAAUCAGCGAGCCUUCGCAUUU,0.767
GCGUGUUUGCCUGUCCUGAGGUGCCAGGCCUGCAGAGAGUGGACUCUGGUGGGUGCUUCCUUCCUCUGCUGCCUAACUGAGUCUGGCACAGGCUUUCUGCCUUGCCAUGA,0.362
GUAUAUACAAUAAAAUUGCACCCUUUUUUAAACAAAACAAACUAAGCAAUAGUUUGGGCAGUUUUAGUUGUUUUUAGUGAGCAUGUUGUAGUCAUGACUGCAAAGAGAGA,14.1

# Some of these lines once more (study 1):
Substitution,normalised enrichment score
V11R,7.17
K2D,6.81
C4M,4.49
R6W,1.53
L7K,0.75
P10C,6.53
D12P,7.96
R5L,0.464
L7E,-0.131
D12G,7.21
A3P,7.2
C4N,6.8
C4Y,3.04
